# Measurements of several laboratories.
# Protocols differ between the studies behind these lines. “And” joins repeats or separate records; there may be more than shown. Numbers after ± are the reported error.
# GUK1: GUK1 (Homo sapiens, UniProt Q16774)
# Chain of UniProt Q16774 (whole entry, looked up): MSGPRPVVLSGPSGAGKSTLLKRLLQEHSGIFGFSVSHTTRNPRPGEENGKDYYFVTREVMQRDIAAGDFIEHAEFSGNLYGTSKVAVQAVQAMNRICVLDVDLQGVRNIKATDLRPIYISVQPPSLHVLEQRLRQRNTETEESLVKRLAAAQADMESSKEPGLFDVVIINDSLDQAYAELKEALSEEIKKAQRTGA
# GLP1R: Glucagon-like peptide 1 receptor (GLP1R, Homo sapiens, UniProt P43220)
# TOP2A: DNA topoisomerase 2-alpha (TOP2A, Homo sapiens, UniProt P11388)
# Chain of UniProt P11388 (whole entry, looked up): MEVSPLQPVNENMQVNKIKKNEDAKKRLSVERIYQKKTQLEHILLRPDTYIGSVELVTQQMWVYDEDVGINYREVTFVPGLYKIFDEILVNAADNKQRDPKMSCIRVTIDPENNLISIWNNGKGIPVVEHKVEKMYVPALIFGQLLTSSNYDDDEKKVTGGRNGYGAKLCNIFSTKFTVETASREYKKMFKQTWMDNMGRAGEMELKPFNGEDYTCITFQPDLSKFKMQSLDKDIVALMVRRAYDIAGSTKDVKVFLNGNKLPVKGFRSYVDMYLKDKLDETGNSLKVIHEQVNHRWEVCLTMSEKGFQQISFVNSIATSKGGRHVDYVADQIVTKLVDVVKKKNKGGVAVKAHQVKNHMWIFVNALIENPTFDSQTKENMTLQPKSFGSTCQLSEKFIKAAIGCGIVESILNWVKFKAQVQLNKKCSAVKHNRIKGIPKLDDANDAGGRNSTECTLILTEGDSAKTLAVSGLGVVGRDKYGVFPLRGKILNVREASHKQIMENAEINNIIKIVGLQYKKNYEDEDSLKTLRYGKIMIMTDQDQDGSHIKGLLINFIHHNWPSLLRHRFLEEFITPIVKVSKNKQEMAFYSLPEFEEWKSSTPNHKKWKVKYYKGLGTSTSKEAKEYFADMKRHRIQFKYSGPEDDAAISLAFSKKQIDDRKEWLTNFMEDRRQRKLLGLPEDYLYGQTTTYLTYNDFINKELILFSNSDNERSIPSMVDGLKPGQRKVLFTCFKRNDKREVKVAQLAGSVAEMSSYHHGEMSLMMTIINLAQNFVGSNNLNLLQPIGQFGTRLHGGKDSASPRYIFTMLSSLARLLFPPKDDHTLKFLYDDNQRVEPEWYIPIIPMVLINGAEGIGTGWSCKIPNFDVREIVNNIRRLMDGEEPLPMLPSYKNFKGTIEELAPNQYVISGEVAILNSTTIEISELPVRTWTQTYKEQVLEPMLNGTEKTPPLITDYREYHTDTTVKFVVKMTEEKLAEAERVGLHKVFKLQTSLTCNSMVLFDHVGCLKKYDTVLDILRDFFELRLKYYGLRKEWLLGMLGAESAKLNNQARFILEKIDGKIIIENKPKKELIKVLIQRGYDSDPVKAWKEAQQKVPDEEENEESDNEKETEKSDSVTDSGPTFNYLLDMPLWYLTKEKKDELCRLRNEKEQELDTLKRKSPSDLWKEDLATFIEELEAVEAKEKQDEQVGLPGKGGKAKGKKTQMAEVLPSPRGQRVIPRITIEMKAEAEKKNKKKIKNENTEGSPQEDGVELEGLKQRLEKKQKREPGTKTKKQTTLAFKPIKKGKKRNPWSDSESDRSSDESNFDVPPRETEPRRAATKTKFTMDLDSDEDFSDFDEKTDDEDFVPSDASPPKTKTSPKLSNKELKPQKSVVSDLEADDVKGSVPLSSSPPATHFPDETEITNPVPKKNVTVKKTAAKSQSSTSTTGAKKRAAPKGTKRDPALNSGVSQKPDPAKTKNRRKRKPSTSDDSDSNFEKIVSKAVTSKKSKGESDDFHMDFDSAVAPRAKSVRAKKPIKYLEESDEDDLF
# Chain of UniProt P51575 (whole entry, unmodified, looked up): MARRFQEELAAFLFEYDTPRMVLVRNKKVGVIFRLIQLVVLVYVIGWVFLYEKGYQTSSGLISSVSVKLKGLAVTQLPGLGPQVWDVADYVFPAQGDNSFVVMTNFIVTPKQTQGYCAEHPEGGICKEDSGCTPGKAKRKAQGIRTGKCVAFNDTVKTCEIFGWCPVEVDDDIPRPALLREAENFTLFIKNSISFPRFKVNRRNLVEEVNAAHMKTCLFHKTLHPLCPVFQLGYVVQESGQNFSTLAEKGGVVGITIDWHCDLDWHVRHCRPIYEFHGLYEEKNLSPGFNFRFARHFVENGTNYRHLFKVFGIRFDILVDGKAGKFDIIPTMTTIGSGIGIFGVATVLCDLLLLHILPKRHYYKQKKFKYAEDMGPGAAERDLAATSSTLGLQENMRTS
# Chain of UniProt Q9BY41 (whole entry, looked up): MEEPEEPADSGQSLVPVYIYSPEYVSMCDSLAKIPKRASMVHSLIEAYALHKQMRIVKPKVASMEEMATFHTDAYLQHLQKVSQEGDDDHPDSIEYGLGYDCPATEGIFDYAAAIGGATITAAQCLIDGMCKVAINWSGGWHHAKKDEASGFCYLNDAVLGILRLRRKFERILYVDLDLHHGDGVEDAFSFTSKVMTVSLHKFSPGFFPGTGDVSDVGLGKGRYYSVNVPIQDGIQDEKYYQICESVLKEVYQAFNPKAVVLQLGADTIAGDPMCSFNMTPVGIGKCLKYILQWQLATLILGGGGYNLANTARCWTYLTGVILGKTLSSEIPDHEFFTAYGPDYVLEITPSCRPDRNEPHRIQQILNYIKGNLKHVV
# Chain of UniProt P48736 (whole entry, looked up): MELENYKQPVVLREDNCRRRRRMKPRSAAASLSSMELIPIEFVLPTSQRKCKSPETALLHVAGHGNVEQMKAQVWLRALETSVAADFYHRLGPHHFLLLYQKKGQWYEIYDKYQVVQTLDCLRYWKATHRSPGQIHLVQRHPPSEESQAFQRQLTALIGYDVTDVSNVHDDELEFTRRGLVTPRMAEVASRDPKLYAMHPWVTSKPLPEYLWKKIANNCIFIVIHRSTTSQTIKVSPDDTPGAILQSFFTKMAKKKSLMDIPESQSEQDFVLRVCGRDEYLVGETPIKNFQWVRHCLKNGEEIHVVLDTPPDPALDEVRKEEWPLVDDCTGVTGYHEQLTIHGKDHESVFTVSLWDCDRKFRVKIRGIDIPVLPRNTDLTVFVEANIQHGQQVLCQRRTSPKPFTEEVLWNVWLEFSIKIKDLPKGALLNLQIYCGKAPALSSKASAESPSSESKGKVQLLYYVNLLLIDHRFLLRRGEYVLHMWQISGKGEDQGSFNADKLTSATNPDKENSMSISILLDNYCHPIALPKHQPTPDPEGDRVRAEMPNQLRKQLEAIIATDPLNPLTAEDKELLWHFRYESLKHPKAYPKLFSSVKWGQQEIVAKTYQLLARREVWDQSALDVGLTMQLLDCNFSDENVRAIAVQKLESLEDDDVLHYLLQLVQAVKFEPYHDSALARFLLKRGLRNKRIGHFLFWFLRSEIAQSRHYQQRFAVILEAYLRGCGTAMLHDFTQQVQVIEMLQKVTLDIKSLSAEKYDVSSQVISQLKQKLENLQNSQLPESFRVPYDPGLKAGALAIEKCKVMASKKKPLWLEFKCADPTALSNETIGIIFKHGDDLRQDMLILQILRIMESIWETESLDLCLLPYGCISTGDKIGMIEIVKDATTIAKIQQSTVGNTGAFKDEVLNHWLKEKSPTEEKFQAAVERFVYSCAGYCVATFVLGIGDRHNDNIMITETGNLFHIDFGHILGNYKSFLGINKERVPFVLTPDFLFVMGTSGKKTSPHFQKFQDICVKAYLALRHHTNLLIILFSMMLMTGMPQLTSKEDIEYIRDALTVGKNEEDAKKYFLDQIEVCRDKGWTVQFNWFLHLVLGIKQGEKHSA
# Chain of UniProt Q12791 (whole entry, looked up): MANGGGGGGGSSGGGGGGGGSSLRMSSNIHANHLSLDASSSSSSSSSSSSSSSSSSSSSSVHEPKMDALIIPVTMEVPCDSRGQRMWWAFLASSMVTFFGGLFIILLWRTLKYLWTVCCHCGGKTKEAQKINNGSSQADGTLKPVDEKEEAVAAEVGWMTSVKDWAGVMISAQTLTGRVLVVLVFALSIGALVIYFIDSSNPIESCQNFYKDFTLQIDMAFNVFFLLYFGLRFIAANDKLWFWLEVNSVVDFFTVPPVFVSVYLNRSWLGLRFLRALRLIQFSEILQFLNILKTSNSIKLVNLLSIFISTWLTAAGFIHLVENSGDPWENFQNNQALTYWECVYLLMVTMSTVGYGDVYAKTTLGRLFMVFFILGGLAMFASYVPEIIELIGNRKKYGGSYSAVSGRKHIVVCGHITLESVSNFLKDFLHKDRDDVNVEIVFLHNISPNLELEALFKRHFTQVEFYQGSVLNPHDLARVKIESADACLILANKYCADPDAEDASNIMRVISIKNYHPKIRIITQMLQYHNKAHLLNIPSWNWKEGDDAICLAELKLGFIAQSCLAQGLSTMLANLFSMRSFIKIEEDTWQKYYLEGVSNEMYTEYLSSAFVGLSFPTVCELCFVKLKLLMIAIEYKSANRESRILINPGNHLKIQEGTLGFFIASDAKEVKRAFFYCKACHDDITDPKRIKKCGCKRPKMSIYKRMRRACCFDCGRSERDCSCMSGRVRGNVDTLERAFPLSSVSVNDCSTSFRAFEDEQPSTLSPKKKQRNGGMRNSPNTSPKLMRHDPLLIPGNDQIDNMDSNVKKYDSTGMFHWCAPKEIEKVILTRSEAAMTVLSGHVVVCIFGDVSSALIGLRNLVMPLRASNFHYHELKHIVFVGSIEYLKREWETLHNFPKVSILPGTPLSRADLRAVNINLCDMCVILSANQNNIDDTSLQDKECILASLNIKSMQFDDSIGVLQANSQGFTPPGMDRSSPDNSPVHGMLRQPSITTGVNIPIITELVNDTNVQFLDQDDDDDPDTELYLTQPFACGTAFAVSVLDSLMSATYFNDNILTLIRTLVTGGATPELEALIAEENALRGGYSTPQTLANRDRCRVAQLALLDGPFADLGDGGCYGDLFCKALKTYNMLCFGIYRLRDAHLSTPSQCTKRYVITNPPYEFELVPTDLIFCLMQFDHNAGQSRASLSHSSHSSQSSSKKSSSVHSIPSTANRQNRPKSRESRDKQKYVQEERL
SMILES,tested on,assay,system,conditions,how to read,quantity,value
CCCCC[C@H](O)/C=C/[C@H]1[C@H](O)CC(=O)[C@@H]1C/C=C\CCCC(=O)O,"Prostaglandin E2 receptor EP1 subtype (PTGER1, Homo sapiens, UniProt P34995, F334A/G92A/P39A)","IP1 accumulation, agonist",AD293,1 h,baseline: wild type receptor,Emax,77.1 ± 4.3%
Cc1nc2[nH]c(=O)n(O)c(=O)c2s1,"Ketol-acid reductoisomerase (NADP(+)) (ilvC, Campylobacter jejuni subsp. jejuni serotype O:2, UniProt Q9PHN5)",slow-binding inhibitor,Campylobacter jejuni,,,koff,0.00126 s⁻¹
Cc1cc(-c2ccnc3[nH]cc(F)c23)cc(F)c1[C@@]1(O)[C@H](C)CN(C2CCS(=O)(=O)CC2)C[C@@H]1C,"RAC-alpha serine/threonine-protein kinase (AKT1, Homo sapiens, UniProt P31749)","ATP/ADP probe binding, KiNativ",HEK293T lysate,"10 µM, ATP loop peptide",,probe labelling inhibition,-40.5%
CC[C@@H]1[C@H](F)C(=O)N[C@@H]1COc1nccc2cc(C(N)=O)c(OC)cc12,"Dual specificity mitogen-activated protein kinase kinase 6 (MAP2K6, Homo sapiens, UniProt P52564)","ATP-site probe binding, ActivX profiling",THP-1 cell lysate,"0.01 mM, Lys1 site",,inhibition,10.3%
O=S(=O)(O)O,GUK1,"enzyme activity, NADH-coupled",,"10 mM, together with: ATP 125 µM",,reaction velocity,0.0365 µM/s and 0.0293 µM/s and 0.0411 µM/s
O=C(CO)NC1C(O)CC(OC2C(O)C(CO)OC(Oc3ccc([N+](=O)[O-])cc3)C2O)(C(=O)O)OC1C(O)C(O)CO (stereo not shown),"Sialidase-2 (Homo sapiens, UniProt Q9Y3R4)",substrate,,"10 min, pH 5.0, 37 °C",,kcat,0.31 ± 0.01 s⁻¹
CN(C)C(=O)C(CCN1CCC(O)(c2ccc(Cl)cc2)CC1)(c1ccccc1)c1ccccc1,"Calcium-activated potassium channel subunit alpha-1, with LRRC26 γ1 subunit (KCNMA1, Homo sapiens, UniProt Q12791)","BK current, inhibitor, inside-out patch clamp",excised membrane patch,"1 µM, γ1 coexpressed, individual fits, together with: nominally 0 Ca2+ cytosolic",baseline: without loperamide,normalized Gmax,0.635 ± 0.056
CC[C@H](C)[C@H](NC(=O)[C@H](Cc1ccccc1)NC(=O)[C@H](CCC(=O)O)NC(=O)[C@H](CCCNC(=N)N)NC(=O)[C@H](C)NC(=O)[C@H](C)NC(=O)[C@H](CCC(N)=O)NC(=O)[C@H](CCC(=O)O)NC(=O)[C@H](CCC(=O)O)NC(=O)[C@H](CC(C)C)NC(=O)[C@H](Cc1ccc(O)cc1)NC(=O)[C@H](CO)NC(=O)[C@H](CO)NC(=O)[C@H](CCCCNc1c(NCCCCCN(O)C(=O)CCC(=O)NCCCCCN(O)C(=O)CCC(=O)NCCCCCN(O)C(C)=O)c(=O)c1=O)NC(=O)[C@H](CC(=O)O)NC(=O)[C@H](CO)NC(=O)[C@@H](NC(=O)[C@H](Cc1ccccc1)NC(=O)[C@@H](NC(=O)CNC(=O)[C@H](CCC(=O)O)NC(=O)[C@H](C)NC(=O)CCc1cnc[nH]1)[C@@H](C)O)[C@@H](C)O)C(=O)N[C@@H](C)C(=O)N[C@@H](Cc1c[nH]c2ccccc12)C(=O)N[C@@H](CC(C)C)C(=O)N[C@H](C(=O)N[C@@H](CCCCNc1c(NCCCCCN(O)C(=O)CCC(=O)NCCCCCN(O)C(=O)CCC(=O)NCCCCCN(O)C(C)=O)c(=O)c1=O)C(=O)NCC(=O)N[C@@H](CCCNC(=N)N)C(=O)N[C@@H](CCCCNC(=O)COCCOCCNC(=O)COCCOCCNC(=O)CC[C@H](NC(=O)CCCCCCCCCCCCCCCCC(=O)O)C(=O)O)C(=O)O)C(C)C,GLP1R,"agonist, CRE luciferase reporter",BHK cells,"Zr-loaded DFO conjugate, together with: 0% HSA",baseline: parent peptide,fold potency loss,68.4
C(/C=C/c1sc2c3ccccc3ccc2[n+]1CCCc1ccccc1)=C1/Sc2c(ccc3ccccc23)N1CCCc1ccccc1.[I-],"Histone-arginine methyltransferase CARM1 (CARM1, Homo sapiens, UniProt Q86X55)","inhibitor, filter binding",,together with: histone H3.3 substrate,,Hill coefficient,1.79
CC[C@H](C)[C@H](NC(=O)[C@H](Cc1ccccc1)NC(=O)[C@H](CCC(=O)O)NC(=O)[C@H](CCCNC(=N)N)NC(=O)[C@H](C)NC(=O)[C@H](C)NC(=O)[C@H](CCC(N)=O)NC(=O)[C@H](CCCCNc1c(NCCCCCN(O)C(=O)CCC(=O)NCCCCCN(O)C(=O)CCC(=O)NCCCCCN(O)C(C)=O)c(=O)c1=O)NC(=O)[C@H](CCC(=O)O)NC(=O)[C@H](CC(C)C)NC(=O)[C@H](Cc1ccc(O)cc1)NC(=O)[C@H](CO)NC(=O)[C@H](CO)NC(=O)[C@@H](NC(=O)[C@H](CC(=O)O)NC(=O)[C@H](CO)NC(=O)[C@@H](NC(=O)[C@H](Cc1ccccc1)NC(=O)[C@@H](NC(=O)CNC(=O)[C@H](CCC(=O)O)NC(=O)[C@H](C)NC(=O)CCc1cnc[nH]1)[C@@H](C)O)[C@@H](C)O)C(C)C)C(=O)N[C@@H](C)C(=O)N[C@@H](Cc1c[nH]c2ccccc12)C(=O)N[C@@H](CC(C)C)C(=O)N[C@H](C(=O)N[C@@H](CCCNC(=N)N)C(=O)NCC(=O)N[C@@H](CCCNC(=N)N)C(=O)N[C@@H](CCCCNC(=O)COCCOCCNC(=O)COCCOCCNC(=O)CC[C@H](NC(=O)CCCCCCCCCCCCCCCCC(=O)O)C(=O)O)C(=O)NCC(=O)NCC(=O)N[C@@H](CO)C(=O)N[C@@H](CCCCNc1c(NCCCCCN(O)C(=O)CCC(=O)NCCCCCN(O)C(=O)CCC(=O)NCCCCCN(O)C(C)=O)c(=O)c1=O)C(=O)O)C(C)C,GLP1R,"agonist, CRE luciferase reporter",BHK cells,"Zr-loaded DFO conjugate, together with: 0% HSA",baseline: parent peptide,fold potency loss,4
CC1CCCN(C(=O)c2cc3ncccn3n2)C1 (stereo not shown),"Transcription intermediary factor 1-beta, PHD-bromodomain (TRIM28, Homo sapiens, UniProt Q13263)","binding, affinity selection mass spectrometry",,,baseline: other proteins in batch,fold enrichment,0.992
CCCCCCCCCCCC(=O)SCCNC(=O)CCNC(=O)[C@H](O)C(C)(C)COP(=O)(O)OP(=O)(O)OC[C@H]1O[C@@H](n2cnc3c(N)ncnc32)[C@H](O)[C@@H]1OP(=O)(O)O,"Peroxisome proliferator-activated receptor alpha (Ppara, Mus musculus, UniProt P23204, F272I)",far-UV circular dichroism,,concentration not given,,secondary structure change,no effect
O=C(COP(=O)(O)O)[C@@H](O)[C@H](O)[C@H](O)COP(=O)(O)O,"GMP synthase [glutamine-hydrolyzing] (Homo sapiens, UniProt P49915)","thermal proteome profiling, item: GMPS",HepG2 cell lysate,"concentration not given, 57 over 37 °C, mean",baseline: compound over control,thermal stability ratio,0.488
O=c1nc(SCc2cc(F)cc(C(F)(F)F)c2)nc(SCc2csc3ccc(Cl)cc23)[nH]1,TOP2A,decatenation,,"7.8 µM, replicate 2",,decatenated DNA,91.9%
c1coc(-c2n[nH]cc2-c2ccnc3ccccc23)c1,"Serine/threonine-protein kinase SSN3 (SSN3, Candida albicans, UniProt Q5AHK2)","kinase binding, MIB/MS competition",Candida albicans lysate,10 µM,"baseline: DMSO, negative = stronger binding",log2 fold change,-0.24
Nc1ncnc2c1ncn2[C@@H]1O[C@H](COP(=O)(O)CP(=O)(O)OP(=O)(O)O)[C@@H](O)[C@H]1O,"P2X purinoceptor 1 (P2RX1, Homo sapiens, UniProt P51575, K136W)",calcium influx,,10 nM,baseline: ionomycin response,calcium influx,0% and 2.42% and 1.73%
[Cl-].[Na+],GUK1,"enzyme activity, NADH-coupled",,15 mM,,reaction velocity,0.0616 µM/s and 0.0214 µM/s and 0.0195 µM/s
CC(C(=O)Nc1ccc([C@H]2[C@@H](F)[C@@H](F)C[C@@H](F)[C@H]2F)cc1)n1cncn1 (stereo partly shown),,,cryopreserved mouse hepatocytes,1 µM,,hepatic clearance,21 mL/min/kg
CC[C@H](C)[C@H](NC(=O)[C@H](Cc1ccccc1)NC(=O)[C@H](CCC(=O)O)NC(=O)[C@H](CCCNC(=N)N)NC(=O)[C@H](C)NC(=O)[C@H](C)NC(=O)[C@H](CCC(N)=O)NC(=O)[C@H](CCC(=O)O)NC(=O)[C@H](CCC(=O)O)NC(=O)[C@H](CC(C)C)NC(=O)[C@H](Cc1ccc(O)cc1)NC(=O)[C@H](CO)NC(=O)[C@H](CO)NC(=O)[C@H](CCCCNc1c(NCCCCCN(O)C(=O)CCC(=O)NCCCCCN(O)C(=O)CCC(=O)NCCCCCN(O)C(C)=O)c(=O)c1=O)NC(=O)[C@H](CC(=O)O)NC(=O)[C@H](CO)NC(=O)[C@@H](NC(=O)[C@H](Cc1ccccc1)NC(=O)[C@@H](NC(=O)CNC(=O)[C@H](CCC(=O)O)NC(=O)[C@H](C)NC(=O)CCc1cnc[nH]1)[C@@H](C)O)[C@@H](C)O)C(=O)N[C@@H](C)C(=O)N[C@@H](Cc1c[nH]c2ccccc12)C(=O)N[C@@H](CC(C)C)C(=O)N[C@H](C(=O)N[C@@H](CCCNC(=N)N)C(=O)NCC(=O)N[C@@H](CCCNC(=N)N)C(=O)N[C@@H](CCCCNC(=O)COCCOCCNC(=O)COCCOCCNC(=O)CC[C@H](NC(=O)CCCCCCCCCCCCCCCCC(=O)O)C(=O)O)C(=O)NCC(=O)NCC(=O)N[C@@H](CO)C(=O)N[C@@H](CCCCNc1c(NCCCCCN(O)C(=O)CCC(=O)NCCCCCN(O)C(=O)CCC(=O)NCCCCCN(O)C(C)=O)c(=O)c1=O)C(=O)O)C(C)C,GLP1R,"agonist, CRE luciferase reporter",BHK cells,"metal-free DFO conjugate, together with: 0% HSA",baseline: parent peptide,fold potency loss,10.5
Cn1cc(-c2ccc(-c3cncc(Cl)c3N3CCC4(CCNC4=O)CC3)cc2)cn1,COLO 205,"gene expression, microarray, item: ANXA2 mRNA",,"concentration not given, 6 h",baseline: untreated cells,log2 fold change,1.75
O=C1CCC(N2C(=O)c3cccc(NCCCCNC(=O)c4cccc(C#Cc5cc(NC(=O)Nc6ccnc(Cl)c6)ccn5)c4)c3C2=O)C(=O)N1 (stereo not shown),"SWI/SNF-related matrix-associated actin-dependent regulator of chromatin subfamily A member 4, residues 537-1393 (SMARCA4, Homo sapiens, UniProt P51532)",ITC,,,,ΔH,-18.3 kcal/mol
O=C(CO)[C@@H](O[C@H]1O[C@H](CO)[C@@H](O)[C@H](O)[C@H]1O)[C@H](O)[C@H](O)CO,"uncharacterized protein (Pelagibacter ubique, UniProt Q4FMK2)",differential scanning fluorimetry,Candidatus Pelagibacter ubique,concentration not given,higher = stronger binding,ΔTm,4.13 °C
C=CC(=O)N1CCC(COCC(=O)N2CCN(c3nc(-c4cnc(N)nc4C(F)F)nc(N4CCOC[C@@H]4C)n3)CC2)CC1,"Phosphatidylinositol 4,5-bisphosphate 3-kinase catalytic subunit gamma isoform (PIK3CG, Homo sapiens, UniProt P48736)",KINOMEscan,,1 µM,,remaining binding,0.55%
CC[C@H](C)[C@@H]1NC(=O)[C@H](Cc2ccc(O)cc2)NC(=O)CSC[C@@H](C(N)=O)NC(=O)CNC(=O)[C@H](Cc2c[nH]cn2)NC(=O)[C@H](CCCNC(=N)N)NC(=O)[C@H](CC(N)=O)NC(=O)[C@@H]2CCCN2C(=O)[C@H](Cc2ccccc2)NC(=O)[C@H]([C@@H](C)O)NC(=O)CNC(=O)[C@H](CC(C)C)NC(=O)[C@@H]2CCCN2C(=O)[C@H]([C@@H](C)O)NC(=O)[C@H](CCCCN)NC1=O,"Vacuolar protein sorting-associated protein 29 (VPS29, Homo sapiens, UniProt Q9UBQ0)","binding, ITC",,"25 °C, protein alone",,ΔG,-9.8 ± 0.08 kcal/mol
CC(NC(=O)CCCc1ccc2ccc3cccc4ccc1c2c34)C(=O)NO (stereo not shown),"Histone deacetylase 8 (HDAC8, Homo sapiens, UniProt Q9BY41)",ITC,Tris-HCl buffer,"concentration not given, 283 K",,binding stoichiometry,0.85
CCO[C@H](COc1ccc(C(F)(F)F)cc1)CSc1ccc(OCC(=O)O)c(C)c1,"Peroxisome proliferator-activated receptor delta (Rattus norvegicus, UniProt Q62879)","reporter gene, agonist, luciferase reporter",rat,,baseline: maximal control activation,Emax,66%
O=C(O)c1ccc(Nc2ncc3c(n2)-c2ccc(Cl)cc2C(c2c(F)cccc2F)=NC3)cc1,human Syk(h),kinase activity,,1 µM,,remaining activity,99%
O=c1nc(SCc2cc(F)cc(C(F)(F)F)c2)nc(SCc2ccc3sccc3c2)[nH]1,TOP2A,ATPase activity,,"7.8 µM, together with: ATP 0.75 mM",,ATP hydrolysis rate,1.26 µM/min and 1.63 µM/min

# Some of these lines once more:
SMILES,tested on,assay,system,conditions,how to read,quantity,value
Cn1cc(-c2ccc(-c3cncc(Cl)c3N3CCC4(CCNC4=O)CC3)cc2)cn1,COLO 205,"gene expression, microarray, item: ANXA2 mRNA",,"concentration not given, 6 h",baseline: untreated cells,log2 fold change,1.75
c1coc(-c2n[nH]cc2-c2ccnc3ccccc23)c1,"Serine/threonine-protein kinase SSN3 (SSN3, Candida albicans, UniProt Q5AHK2)","kinase binding, MIB/MS competition",Candida albicans lysate,10 µM,"baseline: DMSO, negative = stronger binding",log2 fold change,-0.24
O=C(COP(=O)(O)O)[C@@H](O)[C@H](O)[C@H](O)COP(=O)(O)O,"GMP synthase [glutamine-hydrolyzing] (Homo sapiens, UniProt P49915)","thermal proteome profiling, item: GMPS",HepG2 cell lysate,"concentration not given, 57 over 37 °C, mean",baseline: compound over control,thermal stability ratio,0.488
